Experimental data from different studies.
Numbers after ± are the reported error. Bridge positions count the residues as written; N and C are the ends. Ends that are not written are not given here.
SLC22A5: Organic cation/carnitine transporter 2 (SLC22A5, Homo sapiens, UniProt O76082)
Sequence of UniProt O76082 (whole entry, looked up): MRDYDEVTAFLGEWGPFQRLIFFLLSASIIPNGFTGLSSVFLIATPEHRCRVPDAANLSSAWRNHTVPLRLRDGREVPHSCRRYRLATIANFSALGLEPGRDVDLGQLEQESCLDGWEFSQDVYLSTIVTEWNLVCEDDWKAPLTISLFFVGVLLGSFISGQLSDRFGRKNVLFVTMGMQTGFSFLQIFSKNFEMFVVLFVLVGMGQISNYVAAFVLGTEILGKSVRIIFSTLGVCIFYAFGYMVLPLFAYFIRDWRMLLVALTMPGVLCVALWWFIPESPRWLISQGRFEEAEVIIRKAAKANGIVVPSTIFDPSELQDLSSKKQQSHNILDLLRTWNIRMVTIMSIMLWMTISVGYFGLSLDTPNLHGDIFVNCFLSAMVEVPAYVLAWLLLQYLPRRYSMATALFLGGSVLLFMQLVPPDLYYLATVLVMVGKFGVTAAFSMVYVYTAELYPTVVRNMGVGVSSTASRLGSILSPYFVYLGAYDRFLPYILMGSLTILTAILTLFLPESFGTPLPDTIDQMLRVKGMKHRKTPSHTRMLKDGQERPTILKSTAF
MAL12: Alpha-glucosidase MAL12 (MAL12, Saccharomyces cerevisiae S288c, UniProt P53341)
Sequence of UniProt P53341 (whole entry, looked up): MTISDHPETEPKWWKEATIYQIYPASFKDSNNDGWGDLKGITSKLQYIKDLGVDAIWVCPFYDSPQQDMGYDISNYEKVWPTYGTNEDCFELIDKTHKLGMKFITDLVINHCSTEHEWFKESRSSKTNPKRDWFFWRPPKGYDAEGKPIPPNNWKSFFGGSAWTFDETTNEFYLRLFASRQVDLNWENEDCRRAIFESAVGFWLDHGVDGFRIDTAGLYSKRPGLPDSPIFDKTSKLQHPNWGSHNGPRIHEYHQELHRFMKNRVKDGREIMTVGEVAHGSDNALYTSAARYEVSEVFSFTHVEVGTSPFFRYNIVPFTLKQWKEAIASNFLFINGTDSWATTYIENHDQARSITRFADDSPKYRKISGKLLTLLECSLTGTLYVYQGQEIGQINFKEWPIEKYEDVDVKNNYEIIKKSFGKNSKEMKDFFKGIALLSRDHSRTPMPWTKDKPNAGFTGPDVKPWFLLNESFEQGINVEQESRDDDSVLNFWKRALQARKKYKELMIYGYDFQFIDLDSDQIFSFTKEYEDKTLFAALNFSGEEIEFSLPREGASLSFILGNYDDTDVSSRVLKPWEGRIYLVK
AKR1C3: Aldo-keto reductase family 1 member C3 (AKR1C3, Homo sapiens, UniProt P42330)
Sequence of UniProt P42330 (whole entry, looked up): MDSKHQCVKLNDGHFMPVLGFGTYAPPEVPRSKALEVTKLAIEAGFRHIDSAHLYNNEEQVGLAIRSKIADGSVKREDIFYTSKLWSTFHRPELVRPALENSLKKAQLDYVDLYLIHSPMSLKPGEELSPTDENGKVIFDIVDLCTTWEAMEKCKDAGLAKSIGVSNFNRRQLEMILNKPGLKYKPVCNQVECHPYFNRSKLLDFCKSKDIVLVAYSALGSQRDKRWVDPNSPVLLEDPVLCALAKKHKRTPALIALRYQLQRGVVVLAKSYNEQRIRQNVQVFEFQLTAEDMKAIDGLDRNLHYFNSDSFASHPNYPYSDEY
Tubulin alpha-1B chain/TUBB2B colchicine site: Tubulin alpha-1B chain/TUBB2B, colchicine site (Bos taurus, UniProt P81947+Q6B856)
Sequence of UniProt Q6B856 (whole entry, looked up): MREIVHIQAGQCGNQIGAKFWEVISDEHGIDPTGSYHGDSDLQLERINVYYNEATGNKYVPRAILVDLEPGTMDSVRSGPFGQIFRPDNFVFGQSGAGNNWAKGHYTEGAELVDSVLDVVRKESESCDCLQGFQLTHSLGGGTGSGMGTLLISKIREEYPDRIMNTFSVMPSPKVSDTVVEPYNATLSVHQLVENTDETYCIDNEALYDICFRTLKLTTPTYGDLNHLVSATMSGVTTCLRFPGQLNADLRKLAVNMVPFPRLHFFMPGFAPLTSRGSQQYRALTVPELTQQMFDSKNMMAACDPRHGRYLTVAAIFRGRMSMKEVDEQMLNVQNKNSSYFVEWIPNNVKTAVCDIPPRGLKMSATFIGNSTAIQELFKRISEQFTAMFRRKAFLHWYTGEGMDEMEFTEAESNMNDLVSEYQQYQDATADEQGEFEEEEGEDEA
Sequence of UniProt P81947 (whole entry, looked up): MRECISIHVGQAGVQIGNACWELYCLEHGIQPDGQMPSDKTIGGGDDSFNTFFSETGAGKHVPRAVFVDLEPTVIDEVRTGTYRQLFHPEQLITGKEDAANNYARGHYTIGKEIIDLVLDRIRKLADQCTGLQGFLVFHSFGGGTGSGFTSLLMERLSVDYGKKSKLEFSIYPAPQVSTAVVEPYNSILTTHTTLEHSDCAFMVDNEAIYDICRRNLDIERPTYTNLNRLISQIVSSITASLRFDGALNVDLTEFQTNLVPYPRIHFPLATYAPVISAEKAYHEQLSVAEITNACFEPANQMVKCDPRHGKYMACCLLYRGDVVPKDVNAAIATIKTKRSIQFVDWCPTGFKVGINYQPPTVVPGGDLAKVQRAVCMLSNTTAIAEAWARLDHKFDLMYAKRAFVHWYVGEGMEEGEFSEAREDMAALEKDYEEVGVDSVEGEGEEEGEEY
PARP16: Protein mono-ADP-ribosyltransferase PARP16 (PARP16, Homo sapiens, UniProt Q8N5Y8)
Sequence of UniProt Q8N5Y8 (whole entry, looked up): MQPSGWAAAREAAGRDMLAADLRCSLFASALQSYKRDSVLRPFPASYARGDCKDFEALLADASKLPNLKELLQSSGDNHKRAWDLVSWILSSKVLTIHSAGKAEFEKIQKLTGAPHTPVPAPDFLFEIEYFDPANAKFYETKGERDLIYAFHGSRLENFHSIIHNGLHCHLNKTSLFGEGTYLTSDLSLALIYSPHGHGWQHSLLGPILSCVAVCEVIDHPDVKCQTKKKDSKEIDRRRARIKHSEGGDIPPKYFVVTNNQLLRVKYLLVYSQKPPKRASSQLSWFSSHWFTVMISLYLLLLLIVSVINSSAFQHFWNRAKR
Sequence of UniProt P21397 (whole entry, looked up): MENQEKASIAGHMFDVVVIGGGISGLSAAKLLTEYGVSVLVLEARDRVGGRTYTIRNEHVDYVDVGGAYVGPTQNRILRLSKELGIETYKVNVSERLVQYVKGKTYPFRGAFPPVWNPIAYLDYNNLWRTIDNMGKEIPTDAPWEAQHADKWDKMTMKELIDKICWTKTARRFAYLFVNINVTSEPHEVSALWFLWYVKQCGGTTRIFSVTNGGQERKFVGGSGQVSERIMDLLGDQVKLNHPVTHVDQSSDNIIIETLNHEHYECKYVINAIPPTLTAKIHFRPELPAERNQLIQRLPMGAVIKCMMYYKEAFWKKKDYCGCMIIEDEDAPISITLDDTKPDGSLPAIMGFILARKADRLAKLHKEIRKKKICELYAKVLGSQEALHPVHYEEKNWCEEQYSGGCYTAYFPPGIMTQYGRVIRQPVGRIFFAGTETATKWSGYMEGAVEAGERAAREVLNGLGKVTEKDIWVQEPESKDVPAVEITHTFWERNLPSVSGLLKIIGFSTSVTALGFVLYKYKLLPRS
Sequence of UniProt P35372 (whole entry, looked up): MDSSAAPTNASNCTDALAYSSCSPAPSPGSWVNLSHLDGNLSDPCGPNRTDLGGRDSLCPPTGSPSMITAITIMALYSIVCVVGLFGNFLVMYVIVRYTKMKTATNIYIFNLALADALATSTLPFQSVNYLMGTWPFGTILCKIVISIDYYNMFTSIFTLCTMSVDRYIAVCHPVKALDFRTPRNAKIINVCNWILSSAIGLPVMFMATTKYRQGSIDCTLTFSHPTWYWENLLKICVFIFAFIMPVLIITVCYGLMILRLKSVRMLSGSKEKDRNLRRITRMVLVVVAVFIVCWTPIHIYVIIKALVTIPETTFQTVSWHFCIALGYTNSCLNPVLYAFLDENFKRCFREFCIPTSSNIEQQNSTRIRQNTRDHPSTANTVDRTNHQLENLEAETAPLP

The inhibition of `CC[C@]1(O)C[C@H]2CN(CCc3c([nH]c4ccccc34)[C@@](C(=O)OC)(c3cc4c(cc3OC)N(C=O)[C@H]3[C@@](O)(C(=O)OC)[C@H](OC(C)=O)[C@]5(CC)C=CCN6CC[C@]43[C@@H]65)C2)C1` is reported as 48.4% (SLC22A5; transporter uptake, inhibitor; 20 µM).
With `COc1c(O)ccc2c(=O)cc(-c3ccccc3)oc12` the inhibition was greater than 99% (MAL12; enzyme activity, inhibitor; 250 µM).
`O=S1(=O)c2ccc(F)cc2Oc2cc(OCC(F)(F)F)ccc21` has an inhibition of 46.8 ± 22.6% (Amine oxidase [flavin-containing] A (MAOA, Homo sapiens, UniProt P21397); [11C]clorgyline binding, PET; human; oral, 60 mg single dose, 2 h).
The inhibition of `C[C@@]12CC[C@@H]3c4cc(Br)c(O)c(I)c4CC[C@H]3[C@@H]1CCC2=O` is reported as 50% (AKR1C3; enzyme activity, inhibitor, absorbance; 10 µM, pH 9).
With `COc1ccc2sc3c(c2c1)-c1c(OC)cccc1C3=O` the inhibition was 25 to 32% (Dual specificity tyrosine-phosphorylation-regulated kinase 1A (DYRK1A, Homo sapiens, UniProt Q13627); enzyme activity, inhibitor, radiometric; 1 µM).
`O=C(O)CCCC[C@@H]1SC[C@@H]2NC(=O)N[C@@H]21` gave an EC20 of greater than 400 µM (cytochrome c release, ELISA; BALB/cByJ female mouse liver mitochondria; 30 min; relative to: alamethicin maximal release).
With `COc1cc2oc(-c3ccc(O)cc3)cc(=O)c2c(O)c1OC` the inhibition was greater than 99% (MAL12; enzyme activity, inhibitor; 250 µM).
`O=C(O)c1ccccc1Nc1cccc(C(F)(F)F)c1` has an inhibition of 16% (Transient receptor potential cation channel subfamily M member 8 (Trpm8, Mus musculus, UniProt Q8R4D5); ion current, two-electrode voltage clamp; Xenopus oocytes; 100 µM, +100 mV, with: menthol 100 µM).
`COc1ccc(-c2nc3ccccc3s2)cc1OCc1nnc(-c2ccccc2)o1`: “minimal effective dose” 30 mg/kg (seizure protection; albino mouse, scPTZ-induced seizure; ip, 0.5 h).
The EC20 of `CC/C(=C(\c1ccccc1)c1ccc(OCCN(C)C)cc1)c1ccccc1` is reported as 7.7 µM (cytochrome c release, ELISA; BALB/cByJ female mouse liver mitochondria; 30 min; relative to: alamethicin maximal release).
For `C[C@@]12CC[C@@H]3c4cc(I)c(O)c(Br)c4CC[C@H]3[C@@H]1CCC2=O`, the inhibition was 43.6% (AKR1C3; enzyme activity, inhibitor, absorbance; 100 µM, pH 9).
With `CGHHHRDYC (disulfide 1-9 (inferred)) (disulfide)` the inhibition was 12% (maltase-glucoamylase (rat intestine); enzyme activity; 1.2 mM, 120 min, pH 6.8, 37 °C, with: 4-MUG 0.3 mM).
`COc1ccc(-c2cc(=O)c3ccc(O)cc3o2)cc1` has an inhibition of 85.1% (MAL12; enzyme activity, inhibitor, absorbance; 250 µM).
The Km of `NC(=O)c1ccc[n+]([C@@H]2O[C@H](COP(=O)(O)OP(=O)(O)OC[C@H]3O[C@@H](n4cnc5c(N)ncnc54)[C@H](O)[C@@H]3O)[C@@H](O)[C@H]2O)c1` is reported as 313 ± 38 µM (cofactor, NADH absorbance; pH 9.0).
The inhibition of `C[C@@]12CC[C@@H]3c4cc(Cl)c(O)c(I)c4CC[C@H]3[C@@H]1CCC2=O` is reported as 58% (AKR1C3; enzyme activity, inhibitor, absorbance; 100 µM, pH 9).
`COc1c(-c2ccc(O)cc2)oc2c(OC)c(O)cc(O)c2c1=O` gave an inhibition of 24.7% (MAL12; enzyme activity, inhibitor, absorbance; 1 µM).
With `C[C@@]12CC[C@@H]3c4cc(Cl)c(O)c(Br)c4CC[C@H]3[C@@H]1CCC2=O` the inhibition was 88% (AKR1C3; enzyme activity, inhibitor, absorbance; 100 µM, pH 9).
`CC(C)[C@H](NC(=O)[C@@H]1CCCN1C(=O)[C@H](CCCNC(=N)N)NC(=O)[C@H](CS)NC(=O)[C@H](Cc1c[nH]c2ccccc12)NC(=O)[C@H](CCCNC(=N)N)NC(=O)[C@@H](Cc1ccccc1)NC(=O)[C@H](Cc1c[nH]cn1)NC(=O)[C@H](CCC(=O)O)NC(=O)[C@H](CS)NC(=O)[C@H](CS)NC(=O)[C@H](CCCCN)NC(=O)[C@@H]1CC(=O)N[C@@H](CCCNC(=N)N)C(=O)N[C@@H](C)C(=O)N[C@@H](CC(=O)O)C(=O)N[C@H](Cc2ccc(O)cc2)C(=O)N1)C(N)=O` [technetium-99m labelled] has a tissue uptake of 0.04 ± 0.01 %ID/g (C57 mice, brain; intravenous, 0.037 MBq, 2 h).
The inhibition of `O=C(CSc1nnc(NCc2ccccc2)s1)NCC1CCCCC1` is reported as 16 ± 3% (mouse hippocampal CA1 neurons; NMDA receptor EPSC; 3 µM, holding +40 mV; relative to: baseline).
`COc1ccc(-c2cc(=O)c3c(O)cc(OC)cc3o2)cc1` gave an inhibition of less than 1% (MAL12; enzyme activity, inhibitor; 25 µM, with: p-nitrophenyl-α-D-glucopyranoside).
`Cc1ccc(O)c(C=NNC(=S)NCc2ccccc2)c1` has an inhibition of less than 50% (Aldo-keto reductase family 1 member B1 (AKR1B1, Homo sapiens, UniProt P15121); enzyme activity, inhibitor, absorbance; 100 µM).
`COc1cc(-c2nc(N)sc2-c2ccc3ccccc3c2)cc(OC)c1OC` gave an inhibition of 94 ± 0.49% (Tubulin alpha-1B chain/TUBB2B colchicine site; [3H]colchicine binding; 1 5 5 µM).
With `CN(C)Cc1cc(OCCC[18F])ccc1Sc1ccccc1N` the tissue uptake was 0.66 ± 0.09 %ID/g (SERT; male Sprague Dawley rat, control, hypothalamus; intravenous, 60 min).
`Cn1c(-c2ccc(C(N)=O)cc2F)nnc1C(C)(C)Oc1c(F)cc(Cl)cc1F` has a median half-life of 93 h (young non-Japanese humans, plasma; oral, 2 mg, day 1, single dose).
For `CCOc1ccc(-c2sc(N)nc2-c2cc(OC)c(OC)c(OC)c2)cc1`, the inhibition was 95 ± 0.71% (Tubulin alpha-1B chain/TUBB2B colchicine site; [3H]colchicine binding; 1 5 5 µM).
`C[N+](C)(C)C[C@@H](O)CC(=O)[O-]` gave an inhibition of 6.98% (SLC22A5; transporter uptake, inhibitor; 1 µM).
For `COc1ccc2c(=O)c(OC)c(-c3ccccc3)oc2c1`, the inhibition was greater than 99% (MAL12; enzyme activity, inhibitor; 250 µM).
`O=C1CCCc2ccccc2N1` gave an inhibition of 95% (PARP16; enzyme activity, inhibitor; 10 µM).
For `C[C@@]12CC[C@@H]3c4cc(Br)c(O)c(Cl)c4CC[C@H]3[C@@H]1CCC2=O`, the inhibition was 89.4% (AKR1C3; enzyme activity, inhibitor, absorbance; 100 µM, pH 9).
With `O=C1NCC(c2ccccc2)C(O)c2ccccc21` (racemic) the inhibition was 0% (PARP16; enzyme activity, inhibitor; 10 µM).
For `COc1cc(-c2cc(=O)c3ccc(O)c(OC)c3o2)cc(O)c1OC`, the inhibition was greater than 99% (MAL12; enzyme activity, inhibitor; 250 µM).
For `Oc1ccc(/C=C/c2cccc(O)c2)cc1`, the inhibition was 16.7% (Mu-type opioid receptor (OPRM1, Homo sapiens, UniProt P35372); radioligand binding; 10 µM, 60 min, with: [3H]DAMGO).
The inhibition of `C[C@@]12CC[C@@H]3c4cc(I)c(O)c(Cl)c4CC[C@H]3[C@@H]1CCC2=O` is reported as 50% (AKR1C3; enzyme activity, inhibitor, absorbance; 10 µM, pH 9).
With `CCCCCCCCCC[N+](C)(C)Cc1ccccc1` the Km was 0.69 µM (ω-hydroxylation, substrate; human liver microsomes; with: NADPH).

Repeated from above:
`COc1ccc(-c2cc(=O)c3ccc(O)cc3o2)cc1` has an inhibition of 85.1% (MAL12; enzyme activity, inhibitor, absorbance; 250 µM).
The Km of `NC(=O)c1ccc[n+]([C@@H]2O[C@H](COP(=O)(O)OP(=O)(O)OC[C@H]3O[C@@H](n4cnc5c(N)ncnc54)[C@H](O)[C@@H]3O)[C@@H](O)[C@H]2O)c1` is reported as 313 ± 38 µM (cofactor, NADH absorbance; pH 9.0).
